Assay results pooled from the literature.
Parts stem from different laboratories: compare values within a part only.

Sample 1 — technique: protein binding microarray; form: double-stranded DNA, one strand shown; matrix: in vitro; concentration: not given; reference: not given; direction: higher = stronger binding
Target: Histone acetyltransferase KAT6A, winged helix 1, GST fusion (KAT6A, Homo sapiens, UniProt Q92794, residues 1-85)
Setting: 8-mer, flanks averaged, mean of 2 arrays, mostly near background
Target sequence (chain): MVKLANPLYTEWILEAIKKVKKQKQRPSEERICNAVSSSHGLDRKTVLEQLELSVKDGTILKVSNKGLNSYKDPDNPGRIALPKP
Oligonucleotide	E-score
CTGTCTGC	-0.145
AATGATGG	-0.0634
AGACGCTC	0.122
CGTAACGA	0.117
ACCCACAA	-0.127
AGAGAGTA	-0.0743
GACCCCAC	-0.216
ACATGATC	-0.0615
CGCGTCGC	0.428
CCTGAGTC	-0.00443
CGAACCAG	-0.0651
GAAAGATA	-0.188
ACTTCACT	-0.189
GACTGACA	-0.107
AAAGTAGC	-0.0553
ATTCGCTC	-0.0706
CTTAATTA	-0.173
CGTGAAAG	-0.0438
ACTGTTAA	0.0551
AAGCTTAT	-0.0464
GATACTAA	-0.0269
ATTCTGGG	-0.201
ACAACTGA	-0.13
ACCATTTG	0.00271
AAACCTTT	-0.0527

Sample 2 — technique: RNA Bind-n-Seq; form: RNA; matrix: in vitro; concentration: 365 nM; reference: no-protein control; direction: higher = stronger binding
Target: RNA binding protein fox-1 homolog 2, RRM domain, GST-SBP tag (RBFOX2, Homo sapiens, UniProt O43251-10, residues 100-194)
Setting: natural RNA segment, single round, ends assumed
Shared flanks, not repeated: GGGAGUUCUACAGUCCGACGAUC … UGGAAUUCUCGGGUGCCAA
Residues (chain): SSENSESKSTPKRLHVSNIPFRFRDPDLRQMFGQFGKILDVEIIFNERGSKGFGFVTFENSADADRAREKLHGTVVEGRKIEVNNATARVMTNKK
Oligonucleotide	RBNS enrichment (R)
AAUUUAAUGCUUCUUUUCCUUAAAAAAUAAAAAAAAAAAUCAAAAAAACCCACUAAAGUGAAGCAUUUCUUGAUUCCCUUUUCCAUGCUGGUGCCUAGCCCGGGUGAGUG	0.427
CUCACACCCAGACACCCAGACACUUAACCACUCCUGCAAAGCAGAUAGAGCCUUCAGUUUGCCAUUACCCACUGUGGUCUGCUUUUCAGCCUAGCAAUUUGAGCUCUCAG	0.641
UUUAUUUUUAGAUAGGGUUUCAGGUAGAUCUGCAGGCCUUGACCUUACUAUAUAGUUGAAGAUGGCCUUGACCUCCUGACCCCUGCCUCAGCCAUGCCUGGCUAGGACAG	0.357
CUUUGAGUUUCCAUAUUGAAUGUGUUUGGACUAAACAAACAAUAAACUACUGAUGUCUGCAGCAUUUUCUAUGUCCCUAAUUUAAUCUAUAGUUUUUAUUGUUCCCAAAU	0.701
AAAUUGCACCACACAAGUAGCAGUUCAUAAGAAUAAAAUGUGCUUAUUUUACGCAUGGUCCAUAAAAUGAUUUGAUACUCUUUUAAAGUGUAUGUGGUCCAUUAGAAAGG	0.84
CCCAGACUGGAAAUCCAUCACAUCCCAAGGCUCCUUGGCAGUCAUCUGUCUGUGUGGCUUGUUCUGUGGGCCUGAACUCCUAAGCACAGGUCGGGGGUAAAACUAGGAUG	0.578
UUAUCCGUUGUCUCUGAAGUGGACAGUAUCCUUUCCUGCCCCGCCAAGCAUGCUCAGUGCCUUUUGGUUUCCCCUCCUUCCCCUAGAUUCAGUUUUGCUCCCUCUGGGUU	2.86
CAUAACAUACUGAAACUAUUUAUAUUUUCUUUUUUAAGGAUAUUUAGAAAUUUUGUGUAUUAUAUGGAAAAAGAAAAAAAGCUUAAGUCUGUAGUCUUUAUGAUCCUAAA	0.611
GUUCAGACGCAGACGAAGACCAACAUUGUUUUAUAUGUUGAAUUUAUAAAAUGCUAGUAAUUUAGAACCCUCCCCCCAAAUCAAGGAGGCAAAAAAUAACGCACUAGUCA	0.388
AAUCUGAGCCCAGCAGGAGAGGAUGGUAGGGUUGCCAGGGCUCAGAAGUGCAAGCUGAUUACUCACCCCACCCUGCCUCGCCGCACCUUUCCUUUGUUUCCUUGGGUGAA	1.41
CAGGUGUACCUCAAUCCACAUUACAGCCAUGCUCCUAAUGUACAUGGACAUUUUUGUAACUCAGCUCAUAUUCUGACUGUAUUUGAGAAGCUGGCUGUUUAAGGGAACCC	0.613
GUCUUGGACUCAAAGGCUAAACUGAUCCAGUCCUUUCUCCUUUGUGUCAAUAAAAGGCUAAACUGAAGACCUCCAGAAGUGGACAGAUGUCUGGUUUUCUUUUUGGUGCU	0.634

Sample 3 — technique: RNA Bind-n-Seq; form: RNA; matrix: in vitro; concentration: 200 nM; setting: whole 134-nt RNA, ends assumed; together with: 150 mM KCl; reference: input library; direction: higher = stronger binding
Target: Fragile X messenger ribonucleoprotein 1, C-terminal low-complexity region (Fmr1, Mus musculus, UniProt P35922)
Shared flanks, not repeated: GGGAGUUCUACAGUCCGACGAUC … UGGAAUUCUCGGGUGUCAAGG
Oligonucleotide	log2 enrichment
CUGUGCUACACAUCGUAUGUACCGAAUCGGGGAAAAAAGGGGAAAAAAGGGGAAAAAAGGGGAAAGUAUUAUGUUACGCCGUUCGGAUCU	-0.118
UGGCUGGCUGUGGCCUCACAGCUGAGGACUGCAAGGACCUUGCCUUUGGGCUGAGAGCCAACCAGACCCUGACCGAGCUGGACCUGAGCU	-2.12
GUGCUACACAUCGUAUGUACCGAAUCGGGGCCCCCCCGGGGCCCCCCCGGGGCCCCCCCGGGGAAAGUAUUAUGUUACGCCGUUCGGAUC	-2
CACAGACAACACGCACCCACACAGACACAGAGGGAAGGGGUUGGGAUGGGGACAGGGUGCACAGCAGGGCGGGGUAGGACCCCCGCCCCU	1.38
ACCAUGCAGGUGGGCAUCUUUGGGAAGUGGGGCAAGGGGGGGAUAGGGAGGGGGGUAACACUUUGGGAACAGGUGGUCCCAGAAAGUUUC	0.586
UGUGCUACACAUCGUAUGUACCGAAUCGGGGUUUUUUUGGGGUUUUUUUGGGGUUUUUUUGGAAAGUAUUAUGUUACGCCGUUCGGAUCU	0.14
UUGGGUUCAAUAUACGGAGAGUGCCCUGUGCCAAAGCCACGAGUUGAUCGUCCAAGAAAAGUUCCUGUGAUACAAGAGGAGAGGGCAAUG	-1.47
CAAGUCCUGUGCUACACAUCGUAUGUACCGAAUCGGAAAGGAAAGGGGAAAGGGGAAAGUAUUAUGUUACGCCGUUCGGAUCUGCACUUC	-0.217
UCAAGUCCUGUGCUACACAUCGUAUGUACCGAAUCGGAAAGGAAAAAAAGGUGGAAAGUAUUAUGUUACGCCGUUCGGAUCUGCACUUCC	-0.588
UCCUGUGCUACACAUCGUAUGUACCGAAUCAAAUUUUUUUAAACCCAAACCCCCCCAAAAAAGUAUUAUGUUACGCCGUUCGGAUCUGCA	0.0158
UCCUGUGCUACACAUCGUAUGUACCGAAUCGGGCCCCCGGGCCCCCGGGGCCCCCGGGGAAAGUAUUAUGUUACGCCGUUCGGAUCUGCA	-0.885
AAGUCCUGUGCUACACAUCGUAUGUACCGAAUCGGUGGAAAAAAAGGAAAAAAAGGAAAGUAUUAUGUUACGCCGUUCGGAUCUGCACUU	-0.725

Sample 4 — target: human cyclin A2; effect on: peptide binding; technique: competitive growth sequencing; form: peptide; organism: Saccharomyces cerevisiae; strain: cyclin A2-Cln2 fusion strain; concentration: concentration not given; setting: mutational scanning library 2; reference: unfused Cln2 strain; direction: direction not given
Sequence	binding score
LLRRLQDVANDRG	1.11
GFGFLLFICKLTF	1.36
LLKRLQDVVSERA	1.45

Sample 5 — technique: aptamer microarray, sandwich; form: DNA with 2'F-ANA; matrix: in vitro; concentration: 200 nM; together with: Cy3 exosite-II aptamer, 400 nM; direction: higher = stronger binding; oligonucleotide: GGTTGGTGTGGTTGG
Target: Prothrombin, mature alpha-thrombin (F2, Homo sapiens, UniProt P00734)
Setting: whole 15-mer aptamer, many near background
Modification	mean fluorescence intensity
2'F-ANA at 2 3 6 11 13 14	332 a.u.
2'F-ANA at 2 3 4 5 10 12	55.3 a.u.
2'F-ANA at 4 5 6 13 14 15	47.8 a.u.
2'F-ANA at 2 3 4 6 7 10 14 15	163 a.u.
2'F-ANA at 2 3 5 6 8 12 15	240 a.u.
2'F-ANA at 4 7 8 9 10 11	85.2 a.u.
2'F-ANA at 1 2 4 5 6 8 11 15	53.2 a.u.
2'F-ANA at 4 6 8 10 11 12 14 15	58.2 a.u.
2'F-ANA at 1 5 6 7 11 12 13 14 15	51 a.u.
2'F-ANA at 1 2 3 5 6 8 9 12 13 14	47.5 a.u.
2'F-ANA at 3 6 8 9 12 13 14	546 a.u.
2'F-ANA at 1 2 3 4 5 7 9 11 15	83.4 a.u.
2'F-ANA at 1 2 7 8 10 14	45.4 a.u.
2'F-ANA at 2 4 5 7 9 13 15	51.3 a.u.
2'F-ANA at 10 12 13 15	218 a.u.
2'F-ANA at 4 6 10 12 15	105 a.u.
2'F-ANA at 1 3 5 6 7 8 9 10 11 12 13	95.5 a.u.
2'F-ANA at 4 5 7 8 9 10 11 12 13 14	58.4 a.u.
2'F-ANA at 1 2 3 4 6 7 9 12 14	64.4 a.u.
2'F-ANA at 2 8 9 13 14 15	142 a.u.
2'F-ANA at 3 7 8 10 11 12 15	649 a.u.
2'F-ANA at 3 8 9 14 15	623 a.u.
2'F-ANA at 1 2 4 5 6 9 14	46.5 a.u.
2'F-ANA at 1 2 3 4 5 7 8 13 14 15	46.2 a.u.
2'F-ANA at 4 5 6 12 14	42.3 a.u.

Sample 6 — technique: protein-binding microarray; form: double-stranded DNA, one strand shown; matrix: in vitro; concentration: not given; direction: higher = stronger binding
Target: Myc proto-oncogene protein, bHLH-zipper, MAX partner unstated (MYC, Homo sapiens, UniProt P01106, residues 368-449)
Chain of UniProt P01106 (368-449, looked up): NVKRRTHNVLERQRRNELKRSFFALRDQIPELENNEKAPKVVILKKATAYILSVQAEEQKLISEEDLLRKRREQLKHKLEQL
Setting: k-mer, scored over probes, only values ≥0.25
Oligonucleotide	E-score
CATGGTGA	0.346
ACGTGATA	0.415
AGCACATG	0.481
ACACGCTA	0.313
CATGAGAC	0.252
AACGCACG	0.391
CACGTCGG	0.25
CGCCCACA	0.31
CACGCTCA	0.296
CACGCCGG	0.402
ACACGCAT	0.381
CGCCCCTC	0.262
ACGCGGTA	0.32
CCATGCCC	0.322
CCCCTCCA	0.368
AAGCACAT	0.346
CGTGGGAC	0.405
AGCAGGTG	0.349
CGTGCGCC	0.374
CGCGCGCA	0.267
TGCCGGCA	0.375
GCGCGGAA	0.268
GCGTGGGA	0.398
